Assay results collected from several papers.
Each line is one published result; not all experiments were run side by side. ± marks the error that the study gave.

Cc1nc2ccc(F)cc2n1-c1nc(N)c(F)c(Nc2ccc(C(F)(F)F)cc2)n1  AUC(0-inf) (human patients, plasma; oral, 300 mg twice weekly, cycles 1 and 2 pooled): 18000 ng·h/mL
C[C@H](Oc1ccc(Br)cc1-c1ccon1)C(=O)O  AUC(0-inf) (human, plasma; oral, 400 mg twice daily, day 1, multiple ascending dose): 204000 ng·h/mL
NC[C@@]1(CC(=O)O)[C@@H]2CC[C@H]3C[C@@H]2[C@@H]1C3  AUC(0-inf) (human, moderate renal impairment, plasma; oral, 20 mg single dose, geometric mean): 3920 ng·h/mL
Cn1cncc1[C@@](N)(c1ccc(Cl)cc1)c1ccc2c(c1)c(-c1cccc(Cl)c1)cc(=O)n2C  AUC(0-inf) (healthy human, plasma; oral, 50 mg): 417 ng·h/mL
CC(=O)O[C@H]1C(=O)[C@@]2(C)[C@H]([C@H](OC(=O)c3ccccc3)[C@]3(O)C[C@H](OC(=O)[C@H](O)[C@@H](NC(=O)c4ccccc4)c4ccccc4)C(C)=C1C3(C)C)[C@]1(OC(C)=O)CO[C@@H]1C[C@@H]2O  AUC(0-inf) (noncompartmental analysis; human cancer patients, plasma; intravenous infusion, 80 mg/m^2, cycle 1 day 1, with: daily oral co-medication): 4590 ng·h/mL
C[C@H](O)c1cc(C(=O)N[C@@H](C)Cn2ccc(-c3ccc(C#N)c(Cl)c3)n2)n[nH]1  AUC(0-inf) (human, fasted, plasma; oral solution, 300 mg 14C-darolutamide, geometric mean): 38300 ng⋅h/mL
CNC(=O)c1c(C)oc2cc(Oc3ncnc4cc(OC)c(OC)cc34)ccc12  AUC(0-inf) (human, normal hepatic function (NCI), plasma; oral, dose not given, single dose): 5300 ng·h/mL
N[C@@H]1c2cccnc2[C@H](OC(=O)N2CCC(n3c(=O)[nH]c4ncccc43)CC2)CC[C@H]1c1cccc(F)c1F  AUC(0-inf) (human, plasma; oral, dose not given, single dose, mean, with: fluconazole): 9570 ng·h/mL
C[C@]12C=CC(=O)C=C1CC[C@@H]1[C@@H]2[C@@H](O)C[C@@]2(C)[C@H]1CC[C@]2(O)C(=O)CO  AUC(0-inf) (human; oral, dose not given): 2440 ng·h/mL
C[C@H]1CN(C(=O)CC#N)[C@]12CCN(c1ncnc3[nH]ccc13)C2  AUC(0-inf) (healthy human, plasma; oral, 3 mg single, geometric mean): 66.6 ng·h/mL
N[C@]1(C(=O)O)[C@H]2[C@@H](C[C@@H]1F)[C@@H]2C(=O)O  AUC(0-inf) (human, both sexes, plasma; oral, 20 mg, fed, single dose): 676 ng·h/mL
Cc1cccc(F)c1N1CCC(N2Cc3cn(CC(C)(F)F)nc3N(Cc3ccccc3C(F)(F)F)C2=O)CC1  AUC(0-inf) (human healthy subjects, plasma; oral, 100 mg, single dose, fed, geometric mean): 5430 ng·h/mL
COC(=O)N[C@H](C(=O)N1CCC[C@H]1c1nc2cc([C@H]3CC[C@H](c4cc5nc([C@@H]6CCCN6C(=O)[C@@H](NC(=O)OC)[C@@H](C)OC)[nH]c5cc4F)N3c3cc(F)c(N4CCC(c5ccc(F)cc5)CC4)c(F)c3)c(F)cc2[nH]1)[C@@H](C)OC  AUC(0-inf) (healthy human subjects, plasma; oral, dose not given, with: carbamazepine twice daily): 1080 ng·h/mL
CC(C)n1c(/C=C/C(O)CC(O)CC(=O)O)c(-c2ccc(F)cc2)c2ccccc21 (stereo not shown)  AUC(0-inf) (human; oral, 20 mg, alone, control phase): 266 ± 86 ng·h/mL
N#C[C@H](C[C@@H]1CCCNC1=O)NC(=O)[C@H](CC1CC1)NC(=O)c1cc2cccc(Cl)c2[nH]1  AUC(0-inf) (human; 225 mg twice daily, day 1): 5460 ng·h/mL
[H]/N=C(/N)c1ccc(NCc2nc3cc(C(=O)N(CCC(=O)O)c4ccccn4)ccc3n2C)cc1  AUC(0-inf) (healthy humans, plasma; oral, 75 mg, alone, geometric mean): 522 ng·h/mL
CC1(C)CC[C@]2(NC(=O)C(C)(F)F)CC[C@]3(C)[C@H](C(=O)C=C4[C@@]5(C)C=C(C#N)C(=O)C(C)(C)[C@@H]5CC[C@]43C)[C@@H]2C1  AUC(0-inf) (human, plasma; oral, 150 mg single dose, alone, geometric mean): 1380 ng·h/mL
Cc1cc(Nc2cc3ncccc3c(N[C@@H]3C[C@H]4CC[C@@H](C3)N4CCC#N)n2)n[nH]1  AUC(0-inf) (human, plasma; 300 mg single dose, mean): 27.9 ng·h/mL
C[C@@H](Oc1ccc(S(C)(=O)=O)cc1C(=O)N1C[C@@H]2C[C@]2(c2cc(C(F)(F)F)on2)C1)C(F)(F)F  AUC(0-inf) (healthy young humans, plasma; oral, 75 mg single dose): 18.4 µM·h
FC(F)(F)c1ccc(CNc2ccc(Cc3c[nH]c4ncc(Cl)cc34)cn2)cn1  AUC(0-inf) (item: total radioactivity; healthy human male, whole blood; oral, 400 mg [14C]-labelled): 97400 ng·h/mL
N#CCNC(=O)c1ccc(-c2ccnc(Nc3ccc(N4CCOCC4=O)cc3)n2)cc1  AUC(0-inf) (healthy human volunteers, plasma; 200 mg momelotinib, day 1, fasted, momelotinib alone): 4320 ng·h/mL
NC(=S)NN=Cc1ncccc1N  AUC(0-inf) (human, plasma; intravenous, 50 mg, geometric mean): 805 ng·h/mL
Nc1ccn([C@@H]2O[C@H](CO)[C@@H](O)C2(F)F)c(=O)n1  AUC(0-inf) (HPLC-UV; human, plasma; intravenous, 800 mg/m^2, mean, after paricalcitol): 17800 ng·h/mL
C=CC(=O)N(C)CCOc1c(N)ncnc1-c1cc(F)cc(NC(=O)c2ccc(C3CC3)cc2F)c1C  AUC(0-inf) (human, whole blood; oral, 600 mg, single ascending dose): 1180 ng·h/mL
CO[C@H]1C[C@@H]2CC[C@@H](C)[C@@](O)(O2)C(=O)C(=O)N2CCCC[C@H]2C(=O)O[C@H]([C@H](C)C[C@@H]2CC[C@@H](OCCO)[C@H](OC)C2)CC(=O)[C@H](C)/C=C(\C)[C@@H](O)[C@@H](OC)C(=O)[C@H](C)C[C@H](C)/C=C/C=C/C=C/1C  AUC(0-inf) (human patients, plasma; oral, 5 mg single dose, with: vorolanib 200 mg): 398 ± 48.9 ng·h/mL
C=CC(=O)NC1CCN(c2ncc3ncnc(Nc4ccc(Oc5ccc6c(c5)ncn6C)c(C)c4)c3n2)CC1  AUC(0-inf) (human male, plasma; oral, 60 mg single dose, geometric mean, with: carbamazepine multiple doses): 4.5 µM·h
CC1(COc2ccc3c(c2)ncn3-c2ccc3cccc(N4CCC(N)CC4)c3n2)COC1  AUC(0-inf) (human patients, recurrent/progressive HGG or DIPG, serum; oral, 220 mg/m^2, day 1, median): 18.2 µM·h
CN(CC#N)C(=O)C[C@H](Nc1nc2ccccc2[nH]1)c1cccc(C(F)(F)F)c1  AUC(0-inf) (human; intravenous infusion, 2 mg/kg, 1 mg/mL formulation): 11300 ± 664 ng·h/mL
C#C[C@]1(CO)O[C@@H](n2cnc3c(N)nc(F)nc32)C[C@@H]1O  AUC(0-inf) (human, plasma; oral, 400 mg, single dose, geometric mean): 49 µM·h
Cl.[2H]C([2H])([2H])CC(=O)c1cnc(NC(=O)C2CC2)cc1Nc1cccc(-c2ncn(C([2H])([2H])[2H])n2)c1OC  AUC(0-inf) (human, fasted, plasma; oral, 25 mg, single dose, liquid formulation): 1850 ng·h/mL
Cn1c(=O)oc2ccc(-c3ccc(C[C@@H](C#N)NC(=O)[C@@H]4CNCCCO4)cc3)cc21  AUC(0-inf) (human, moderate renal impairment, plasma; oral, 25 mg single dose, mean): 4490 ng·h/mL
CC(C)n1c(Nc2cccnc2)nc2cnc(Nc3ccc(N4CCN(C)CC4)cc3)nc21  AUC(0-inf) (human, male; oral, 100 mg, alone, geometric mean): 880 ng·h/mL
C#Cc1cccc(Nc2ncnc3cc(OCCOC)c(OCCOC)cc23)c1  AUC(0-inf) (human, plasma; oral, 50 mg, day 1): 18.4 ± 8.34 µM·h
CCCOc1ccc(NC(=O)CN2CCN(C)CC2)cc1-c1nc(CC)c(CC)c(=O)[nH]1  AUC(0-inf) (human, fasting, plasma; oral, 10 mg, with: placebo): 569 ± 83 ng·h/mL
NC(CO)(CO)CCc1ccc(Sc2cccc(OCc3ccccc3)c2)cc1Cl  AUC(0-inf) (human, whole blood; oral, 3 mg, with: itraconazole 200 mg once daily): 162 ng·h/mL
C=CC(=O)NC1CCN(c2ncc3ncnc(Nc4ccc(Oc5ccc6c(c5)ncn6C)c(C)c4)c3n2)CC1  AUC(0-inf) (human, male, plasma; oral, 30 mg, fed, adjusted geometric mean): 4.43 µM·h
Cc1cc(C)c(CNC(=O)c2cc(Cl)c3c(c2C)O[C@@](C)([C@H]2CC[C@H](N(C)C)CC2)O3)c(=O)[nH]1  AUC(0-inf) (geometric LS mean; healthy male humans, plasma; oral, dose not given, with: itraconazole): 3180 ng·h/mL

Some of these lines once more:
N#C[C@H](C[C@@H]1CCCNC1=O)NC(=O)[C@H](CC1CC1)NC(=O)c1cc2cccc(Cl)c2[nH]1  AUC(0-inf) (human; 225 mg twice daily, day 1): 5460 ng·h/mL
N[C@@H]1c2cccnc2[C@H](OC(=O)N2CCC(n3c(=O)[nH]c4ncccc43)CC2)CC[C@H]1c1cccc(F)c1F  AUC(0-inf) (human, plasma; oral, dose not given, single dose, mean, with: fluconazole): 9570 ng·h/mL
FC(F)(F)c1ccc(CNc2ccc(Cc3c[nH]c4ncc(Cl)cc34)cn2)cn1  AUC(0-inf) (item: total radioactivity; healthy human male, whole blood; oral, 400 mg [14C]-labelled): 97400 ng·h/mL
C[C@H](O)c1cc(C(=O)N[C@@H](C)Cn2ccc(-c3ccc(C#N)c(Cl)c3)n2)n[nH]1  AUC(0-inf) (human, fasted, plasma; oral solution, 300 mg 14C-darolutamide, geometric mean): 38300 ng⋅h/mL
